Published values pooled from the literature.
Compare with care: the assays were run in different laboratories. ± gives the spread as reported.
UniProt P08684, sequence (whole entry, looked up): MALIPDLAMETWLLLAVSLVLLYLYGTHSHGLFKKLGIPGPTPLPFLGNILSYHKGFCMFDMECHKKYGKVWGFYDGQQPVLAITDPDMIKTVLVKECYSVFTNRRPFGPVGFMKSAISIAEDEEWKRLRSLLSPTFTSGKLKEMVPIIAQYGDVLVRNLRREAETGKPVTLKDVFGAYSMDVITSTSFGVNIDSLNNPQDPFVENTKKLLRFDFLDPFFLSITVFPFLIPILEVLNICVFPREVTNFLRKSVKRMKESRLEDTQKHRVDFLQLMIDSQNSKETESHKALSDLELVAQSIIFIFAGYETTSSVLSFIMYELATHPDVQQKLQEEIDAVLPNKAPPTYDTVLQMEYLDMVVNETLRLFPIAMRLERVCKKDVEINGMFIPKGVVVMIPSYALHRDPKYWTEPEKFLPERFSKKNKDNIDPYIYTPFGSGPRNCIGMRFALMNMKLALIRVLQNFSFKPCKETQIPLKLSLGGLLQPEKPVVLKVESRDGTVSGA
UniProt O14965, sequence (whole entry, looked up): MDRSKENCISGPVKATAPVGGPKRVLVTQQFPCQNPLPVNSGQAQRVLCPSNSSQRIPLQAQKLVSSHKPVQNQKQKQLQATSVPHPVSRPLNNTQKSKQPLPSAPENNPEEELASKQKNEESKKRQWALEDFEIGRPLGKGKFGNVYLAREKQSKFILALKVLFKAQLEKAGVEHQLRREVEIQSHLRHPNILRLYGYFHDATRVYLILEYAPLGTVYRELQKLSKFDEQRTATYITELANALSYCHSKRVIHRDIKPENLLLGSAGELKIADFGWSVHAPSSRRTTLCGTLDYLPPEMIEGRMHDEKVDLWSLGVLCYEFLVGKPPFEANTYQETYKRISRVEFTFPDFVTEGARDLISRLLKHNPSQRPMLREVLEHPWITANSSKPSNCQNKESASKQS

C=CCN1C[C@H](C(=O)N(CCCN(C)C)C(=O)NCC)C[C@@H]2c3cccc4[nH]cc(c34)C[C@H]21 — Km (H+/organic cation antiporter; cell uptake; hCMEC/D3): 74.1 µM
O=C(/C=C/C=C/C=C/C1CCCCC1)NC1=C[C@@](O)(/C=C/C=C/C=C/C(=O)NC2=C(O)CCC2=O)[C@@H]2O[C@@H]2C1=O — GI50 (LS-513; cell growth, CellTiter-Glo; 78 h): 15.5 µM
NC(=O)c1cnc2[nH]ccc2c1N[C@@H]1[C@@H]2CC3C[C@H]1C[C@@](O)(C3)C2 — change from baseline (flow cytometry, measured: regulatory T cells; Japanese healthy subjects, peripheral blood; oral, 100 mg twice daily, day 4): -0.52%
OC(CCN1CCCCC1)(c1ccccc1)C1CC2C=CC1C2 (stereo not drawn) — change, Gamma power, EEG Pz-O1 (resting-state EEG; healthy elderly humans; oral, 2 mg, eyes closed, LS mean; relative to: baseline): 10%
O=C(O)CC[C@H](NC(=O)N[C@@H](CCCCNC(=O)[C@H](Cc1ccc2ccccc2c1)NC(=O)CCCCCNC(=O)CN1CCN(CC(=O)O)CCN(CC(=O)O)CCN(CC(=O)O)CC1)C(=O)O)C(=O)O [gallium-68 labelled] — tissue uptake (gamma counting; mouse, PC-3 xenograft, bone; intravenous, 3.7 MBq, 2 h): 3.33 ± 0.39 %ID/g
CCn1cc(-c2cc(Cn3ccnc3)cc3c2CCN([C@H](c2cc(OC)ccn2)C2CC2)C3=O)c(C(F)(F)F)n1 — EC50 (Capan-2; cell growth, inhibitor; 120 h): 53.6 nM
c1coc(-c2n[nH]cc2-c2ccnc3ccccc23)c1 — log2 fold change (DUN1 (Candida albicans); kinase binding, MIB/MS competition; Candida albicans lysate; 10 µM; relative to: DMSO): -0.08
CCn1cc(-c2cc(Cn3ccoc3=N)cc3c2CCN([C@@H](C)c2cc(OC)ccn2)C3=O)c(C(F)(F)F)n1 — EC50 (RERF-LC-AI; cell growth, inhibitor; 120 h): 1500 nM
CC(C)NCC(O)c1ccc(O)c(O)c1 (stereo not drawn) — sarcomere length (mouse ventricular cardiomyocytes; dose not given, 0.152 s): 1.58 µm
CC(C)C[C@H](NC(=O)C[C@H](O)[C@H](CC(C)C)NC(=O)[C@H](Cc1c[nH]cn1)NC(=O)CNC(=O)[C@@H](NC(=O)[C@H](C)NC(=O)[C@H](Cc1c[nH]c2ccccc12)NC(=O)[C@H](CCC(N)=O)NC(=O)[C@@H](Cc1ccccc1)NC(=O)COCCOCCNC(=O)CCC(C(=O)O)N1CCN(CC(=O)O)CCN(CC(=O)O)CCN(CC(=O)O)CC1)C(C)C)C(N)=O (stereo partly drawn) [lutetium-177 labelled] — tissue uptake (female BALB/c nu/nu mice, liver; intravenous, 100 pmol, 48 h, added: PA 300 µg): 0.03 ± 0.01 %ID/g
COc1cnc2cccc(N3CCc4c(cc(Cn5ccnc5C)cc4-c4cn(C)nc4C(F)(F)F)C3=O)c2c1 — EC50 (C3A; cell growth, inhibitor; 120 h): 18800 nM
Cn1cc(-c2ccc(-c3cncc(Cl)c3N3CCC4(CCNC4=O)CC3)cc2)cn1 — log2 fold change (COLO 205; gene expression, microarray, measured: ZFP14 mRNA; concentration not given, 6 h; relative to: untreated cells): 2.62
CC[C@@H]1[C@H](F)C(=O)N[C@@H]1COc1nccc2cc(C(N)=O)c(OC)cc12 — inhibition (Aurora kinase A (AURKA, Homo sapiens, UniProt O14965); ATP probe binding, KiNativ profiling, measured: Lys1 probe site; THP-1 cell lysate; 0.2 mM): 20.9%
CC(C)C[C@H](NC(=O)C[C@H](O)[C@H](CC(C)C)NC(=O)[C@H](Cc1c[nH]cn1)NC(=O)CNC(=O)[C@@H](NC(=O)[C@H](C)NC(=O)[C@H](Cc1c[nH]c2ccccc12)NC(=O)[C@H](CCC(N)=O)NC(=O)[C@@H](Cc1ccccc1)NC(=O)COCCOCCNC(=O)CN1CCN(CC(=O)O)CCN(CC(=O)O)CCN(CC(=O)O)CC1)C(C)C)C(N)=O [lutetium-177 labelled] — tissue uptake (BALB/c nu/nu mice, female, lumbar lymph node metastases; intravenous, 50 pmol, 24 h): 5 ± 2 %ID/g
Oc1ccccc1-c1n[nH]cc1-c1ccnc2ccccc12 — log2 fold change (RTK1 (Candida albicans); kinase binding, MIB/MS competition; Candida albicans lysate; 10 µM; relative to: DMSO): -0.08
CN1CCC[C@@H]1CCO[C@](C)(c1ccccc1)c1ccc(Cl)cc1 — Km (H+/organic cation antiporter; cell uptake; hCMEC/D3): 12.1 µM
CC(C)[C@H](NC(=O)[C@H](Cc1ccc(O)cc1)NC(=O)[C@H](Cc1ccc(O)cc1)NC(=O)[C@@H]1CCCN1C(=O)[C@H](CCC(=O)O)NC(=O)[C@H](CCC(=O)O)NC(=O)[C@H](Cc1c[nH]c2ccccc12)NC(=O)[C@@H]1CCCN1C(=O)[C@@H](NC(=O)[C@H](CCC(N)=O)NC(=O)c1ccc2c(c1)C(=O)OC21c2ccc(O)cc2Oc2cc(O)ccc21)C(C)C)C(=O)N[C@H](C(=O)N[C@@H](CCCCN)C(=O)N[C@@H](CCCCN)C(=O)N[C@@H](CO)C(=O)N[C@@H](CO)C(=O)NCC(=O)NCC(N)=O)C(C)C — plasma concentration (human, plasma; intravenous infusion, 400 mg, 0.5 h): 29500 ng/mL
Cc1cc(Nc2ncnc3ccc(NC4=NC(C)(C)CO4)cc23)ccc1Oc1ccn2ncnc2c1 — Tmax, median (Cytochrome P450 3A4 (CYP3A4, Homo sapiens, UniProt P08684); human, plasma; oral, 300 mg, day 1, single dose alone): 3 h

Excerpt of the above:
CC(C)[C@H](NC(=O)[C@H](Cc1ccc(O)cc1)NC(=O)[C@H](Cc1ccc(O)cc1)NC(=O)[C@@H]1CCCN1C(=O)[C@H](CCC(=O)O)NC(=O)[C@H](CCC(=O)O)NC(=O)[C@H](Cc1c[nH]c2ccccc12)NC(=O)[C@@H]1CCCN1C(=O)[C@@H](NC(=O)[C@H](CCC(N)=O)NC(=O)c1ccc2c(c1)C(=O)OC21c2ccc(O)cc2Oc2cc(O)ccc21)C(C)C)C(=O)N[C@H](C(=O)N[C@@H](CCCCN)C(=O)N[C@@H](CCCCN)C(=O)N[C@@H](CO)C(=O)N[C@@H](CO)C(=O)NCC(=O)NCC(N)=O)C(C)C — plasma concentration (human, plasma; intravenous infusion, 400 mg, 0.5 h): 29500 ng/mL
Cc1cc(Nc2ncnc3ccc(NC4=NC(C)(C)CO4)cc23)ccc1Oc1ccn2ncnc2c1 — Tmax, median (Cytochrome P450 3A4 (CYP3A4, Homo sapiens, UniProt P08684); human, plasma; oral, 300 mg, day 1, single dose alone): 3 h
